Experimental data from different studies.
Every numbered part comes from another study and shows a few of its results, in no order.

Set 1
Target: RNA binding protein fox-1 homolog 2, RRM domain, GST-SBP tag (RBFOX2, Homo sapiens, UniProt O43251-10, residues 100-194)
Technique: RNA Bind-n-Seq
Molecule type: RNA
Medium: in vitro
Tested at: 365 nM
Notes: natural RNA segment, single round, ends assumed
Baseline: no-protein control
Direction: higher = stronger binding
Target sequence (chain): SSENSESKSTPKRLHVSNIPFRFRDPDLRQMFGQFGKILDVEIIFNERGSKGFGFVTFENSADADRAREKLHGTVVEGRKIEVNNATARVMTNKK
Sequence | RBNS enrichment (R)
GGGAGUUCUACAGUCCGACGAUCAGGUCACAUGUAUAAAAUUAGCUUUUGUGUAUGUAUACCGUUUAAAGGAUUCCCCCACCCCCACUCCAGGGGGAAAAAAGGAAGUAUCAUACUAUUGAGAGAGAAGUUAUUGGAAUUCUCGGGUGCCAA | 0.625
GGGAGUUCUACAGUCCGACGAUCACUGGGAGCUGGGGCAUUUCCAUCUCCUGGUGGCCAUCCCUGGUCAGGGUGUGAGUGAGCUCUGCUACUCCCCACCCAGUGCCUGAGGAGCCUGUCAGGUUUUGAGAGCUUGGAAUUCUCGGGUGCCAA | 0.283
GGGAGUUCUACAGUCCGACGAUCUGGUUGUGGGUUUUUCAAGGUGCCAUAGCCACCCCCAAAGAUGUUUGUUUAAAGCGUGGGGUUUUUUAAUCUCUGCCACCCUUGUCAAGGGAGUCUUGUAAAGUUGCCGAUGGAAUUCUCGGGUGCCAA | 0.457
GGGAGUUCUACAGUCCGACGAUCCUCUUCUGGGACUGCUGUGAGGCAGAGGAAUGAUGGAGAAUCUAGUGUAGCAGCCUCCAGGCAGGAUUCAGCACAACACUGGGGAGUCACCCUUCCCUCGGGCCUCUGCCUGGAAUUCUCGGGUGCCAA | 0.286
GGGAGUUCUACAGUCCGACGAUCAUGAGCCCCAACACUGCCCGCCUUACCGCCGCUGCCCCGCCCAUCACCAUCACCACUAACCCCGCCCUGCGGGCACCAGGAGGCCUGAGCCUCGGUUUGCCCAGGCCCCUUGGAAUUCUCGGGUGCCAA | 0.451
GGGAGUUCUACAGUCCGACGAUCCUUCUUCAGGGUCUCCCCCCAACCCAACCCAACCAGAUGCUCCCACUUUUAGACAUCUUGUAAUGAAUAGGCCUUGUUGCUACUCUCAAAACAAAUCAAUCGGGAGGGGAUGGAAUUCUCGGGUGCCAA | 0.336
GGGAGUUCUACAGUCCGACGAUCGGCUCCGUCCUGACUGCCCUGUGCCCUGGAAAAGCAGCAAUAGCAUCCGCCCCUUAGAGCCCUCUGGCUAGAGGAGCCACCAGUGGAAAGGAAGACCCUCCAUCCUCUGGUGGAAUUCUCGGGUGCCAA | 0.433
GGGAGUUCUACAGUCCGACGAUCCCUUGCUUUGGAGACUUUAAGACAUUUCCUAAAGCACAAAUAAAAGCCUCGUAUUUCCCCAUUGAGAGUUUUGUUCCAAGGAAUAUGAAGUGAGACAUAUGGGUGAGUCAUGGAAUUCUCGGGUGCCAA | 0.539
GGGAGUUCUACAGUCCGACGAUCGUUAUCUUCAGAAAAUAUUAUUUGACCUACAGUAUGUCCAAAUCAAUUUAAUAAAAUCGCUUUAUAACAGGGUUCUGUGCUUGACAUGUAGUUGUGUGAAUUCAGUGGUCUGGAAUUCUCGGGUGCCAA | 5.58
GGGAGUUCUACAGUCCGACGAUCCCUUCACGCUGUGGAAGCAGCCAAGGCACUUCCUCACCCCCUCAGCGCCACGGACCUCUCUGGGGAGUGGCCGGAAAGCUCCCGGGCCUCUGGCCUGCAGGGCAGCCCAAUGGAAUUCUCGGGUGCCAA | 0.334
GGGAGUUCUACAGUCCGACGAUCCAACUGGAUGGUUUUUGAUUGAAGCCUAGAACAUCUGUAGAGACAAACUCUACCCAGUCUUUUCUAGACCCUCAACUAUCUCCAGUGUUGUUGUUUAAUCGUAGCCGGAUUGGAAUUCUCGGGUGCCAA | 0.383
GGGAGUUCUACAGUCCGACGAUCCCCUGACUCCCUCAUGGUGCCUCGGAGAGUGGGGAGCAUAUUGGGCUGGGGUAAGCACUAGACCCAAGUAGACUGGACACAAAGGGCUCGCCCAGGGCCCUGGCGCCACCUGGAAUUCUCGGGUGCCAA | 0.519

Set 2
Target: Histone acetyltransferase KAT6A, winged helix 1, GST fusion (KAT6A, Homo sapiens, UniProt Q92794, residues 1-85)
Technique: protein binding microarray
Molecule type: double-stranded DNA, one strand shown
Medium: in vitro
Tested at: not given
Notes: 8-mer, flanks averaged, mean of 2 arrays, mostly near background
Baseline: not given
Direction: higher = stronger binding
Target sequence (chain): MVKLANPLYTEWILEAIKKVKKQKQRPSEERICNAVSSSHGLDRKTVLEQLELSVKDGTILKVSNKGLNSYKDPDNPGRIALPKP
Sequence | E-score
ACTTAGAC | -0.18
CATGCAGC | 0.124
AATTGCGG | 0.24
AGTATGCC | -0.0396
AGCGGGAT | 0.306
ACGCACGT | 0.232
CGATAATA | 0.00363
CTAACAGC | -0.0276
AGTCTCAA | -0.149
ACGCTTCG | 0.162
ATGACTCC | 0.00383
CACCCGAC | 0.238
ATAACGAC | -0.07
GTTACAAA | -0.071
AGTCATAA | -0.195
CCAGGCGG | 0.239
AATATTGA | -0.0588
CGAGACGA | -0.0358
AACGCAGC | -0.0551

Set 3
Target: RING finger protein unkempt homolog, zinc fingers 1-6, GST-SBP tag (UNK, Homo sapiens, UniProt Q9C0B0, residues 30-357)
UniProt Q9C0B0, sequence (30-357, looked up): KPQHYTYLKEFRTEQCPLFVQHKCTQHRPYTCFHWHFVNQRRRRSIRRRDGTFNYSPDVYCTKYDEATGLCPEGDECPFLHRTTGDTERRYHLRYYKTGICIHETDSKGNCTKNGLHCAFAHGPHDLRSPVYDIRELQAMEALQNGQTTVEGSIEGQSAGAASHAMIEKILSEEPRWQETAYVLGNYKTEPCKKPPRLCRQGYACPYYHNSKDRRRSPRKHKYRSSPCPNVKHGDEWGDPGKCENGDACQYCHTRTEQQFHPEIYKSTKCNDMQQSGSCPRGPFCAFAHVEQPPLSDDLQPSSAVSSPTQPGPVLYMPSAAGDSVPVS
Technique: RNA Bind-n-Seq
Molecule type: RNA
Medium: in vitro
Tested at: not given
Notes: RNA with constant flanks, human and mouse sites, ends assumed
Baseline: input RNA pool
Direction: higher = stronger binding
Sequence | bound/input enrichment [ratio]
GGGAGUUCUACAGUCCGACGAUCGAGUAAGCAUGCUGUACAUUGUUUUGUGUUUAGUUUUACACCAAACUGUAUUACAGUACUCUUAGUAUUCACCAGCAUACUCACUAUCUGCCUAAGAUAUGCAGCCUUUGUGUUACAAUACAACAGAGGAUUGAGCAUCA | 0.264
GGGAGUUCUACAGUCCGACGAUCUUUAUGCACAUACUUAAAGGACAGAAAUGUCUGGGAAAGUAAUUGUUAAAUAAUGAUAUGUAACUUUUUAACUUUUUAAAUAAAUAACAAGAUUUUUAAUGUGUGUCUCCCUCAGGGUUGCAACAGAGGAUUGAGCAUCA | 2.55
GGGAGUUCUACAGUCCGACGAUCAAGAACAUACGAAUUGUGGUGAUGAACAAUCUCUUGCCUCGGUCAGUCAAAAUGCAUAUGAAAUAUGACCUGAAGGGUUCAACUUACAAGCGGCGGGCUUCUCAGAAAGAACGAGAGAAACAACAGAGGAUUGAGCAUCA | 0.361
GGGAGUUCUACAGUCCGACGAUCCAAAAUUUGGAUGCCCUCCUGAACCAGCUGAAAAGCUUCCCUGCCCGGUUGCGACAGUAUGCGUCCUAUGAGUUUGUUCAGAGGCUUCUGAAAGGUUACAUGAAGAUAAAUAUGCUGGUGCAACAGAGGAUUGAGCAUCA | 0.191
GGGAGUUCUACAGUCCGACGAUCCUUGUAUUUCCUCCUUCUGUUGCUCUCUUUCAUUCACACACUCUCAGUUUCUCAUAUUUGUAGCUCAUUUAUUUGGUUAUUUCCUAAGAAUAUUGAAAGUGAAGCAACUAUGUGACUGUACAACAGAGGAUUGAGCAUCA | 0.166
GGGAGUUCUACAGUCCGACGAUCAGGUUGGGUCAUGACCCCUACAGGUUAGGCCAUGAUGCUUACAGGUUAGGACAAGACCCUUAUAGAUUAGGCCAUGAUCCCUACAGACUAACUCCGGAUCCCUAUAGGGUAUCACCUAGGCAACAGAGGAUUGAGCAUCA | 13.5
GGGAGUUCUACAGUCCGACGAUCGGAGGGUAUGGAGGCUAUGAUGACUAUGGAGGUUAUAAUGACGGGUAUGGUUUUGGGUCUGAUAGAUUUGGAAGAGACCUAAACUACUGUUUCUCAGGAAUGUCUGAUCAUAGAUAUGGACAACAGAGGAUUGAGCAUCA | 2.1
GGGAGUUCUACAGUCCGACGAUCUUAUCAAGGAAACAGAAAGAAGAAUUAUGGCAAAGGCUGAAGAAUUUAUUGACAGAUGUGUUGUUAGAAAGCCCAGUGGAUGGGUGGCAGGUAGUGGAAGCCCAGGGUGAAGACAAUAUGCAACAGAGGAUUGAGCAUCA | 0.725
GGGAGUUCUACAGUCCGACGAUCGAGGGUUUGUCAGAGCCCAAGAAAAGGUCAGCAGAGGAUGAAAAUGAGCAUAAAGUGGAGUUCCGAAAGAAAGGGUUUGAAGCAGGAGGAUUUCUUGGAAGAAAGAAAGUUCCCUAUCUGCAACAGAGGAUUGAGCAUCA | 0.281
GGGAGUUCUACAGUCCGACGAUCCACAAUUGCUCUUACAAUUACAAAGCCGAUGCUGCUGAGAAAAUCAGAAAAGAAAAUCCAGUAGUUGUUGGUGAAAAGAUCCAAAAGAUUUGAACUCCUGCUGGAAUACAAAAUUCUUGACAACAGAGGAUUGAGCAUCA | 0.0929
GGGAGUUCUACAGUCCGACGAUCUUUAUCGUCAAACUGCACUAUGCUUUUCAGACUGAAGGGAAGCUGUACUUAAUAUUGGAUUUCCUCAGGGGAGGAGAUGUCUUCACAAGAUUAUCCAAAGAGGUUCUUUUUACAGAGGAACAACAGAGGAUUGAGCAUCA | 0.188

Set 4
Target: Ras GTPase-activating protein-binding protein 1, RRM domain (G3BP1, Homo sapiens, UniProt Q13283)
UniProt Q13283, sequence (whole entry, looked up): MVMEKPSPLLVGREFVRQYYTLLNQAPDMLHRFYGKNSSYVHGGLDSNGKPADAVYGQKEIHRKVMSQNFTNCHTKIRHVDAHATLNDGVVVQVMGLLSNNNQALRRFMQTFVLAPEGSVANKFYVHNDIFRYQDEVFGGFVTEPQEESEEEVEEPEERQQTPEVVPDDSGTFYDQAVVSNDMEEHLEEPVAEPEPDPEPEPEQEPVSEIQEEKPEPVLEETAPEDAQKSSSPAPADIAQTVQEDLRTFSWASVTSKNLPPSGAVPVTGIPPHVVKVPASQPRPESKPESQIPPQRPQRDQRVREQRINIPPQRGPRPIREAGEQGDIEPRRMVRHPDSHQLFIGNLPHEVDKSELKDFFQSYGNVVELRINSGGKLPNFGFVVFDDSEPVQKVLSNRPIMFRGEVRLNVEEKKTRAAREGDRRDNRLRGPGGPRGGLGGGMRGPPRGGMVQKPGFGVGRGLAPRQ
Technique: RNA Bind-n-Seq
Molecule type: RNA
Medium: in vitro
Tested at: 1 µM
Notes: whole 134-nt RNA, ends assumed
Added: 150 mM KCl
Baseline: input library
Direction: higher = stronger binding
Sequence | log2 enrichment
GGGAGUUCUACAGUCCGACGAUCCACUGACAACACGCACCCACACAGACACAGAGGGAAGGGGUUGGGAUGGGGACAGGGUGCACAGCAGGGCGGGGUAGGACCCCAGCCCCUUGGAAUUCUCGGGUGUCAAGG | 0.0932
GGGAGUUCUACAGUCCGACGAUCUAACUUUAGAGGAGGAUCUGAUGGAUAUGGCAGUGGACGUGGAUUUGGGGAUGGCUAUAGUGGGUAUGGAGGAGGACCUGGAGGUGGCAAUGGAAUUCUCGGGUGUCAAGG | -0.451
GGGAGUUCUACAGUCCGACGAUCCACAGACAACACGCACCCACACAGACACAGAGGGAAGGGGUUGGGAUGGGGACAGGGUGCACAGCAGGGCGGGGUAGGACCCCAGCACCUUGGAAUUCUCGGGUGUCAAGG | -0.538
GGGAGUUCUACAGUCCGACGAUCUCCUGUGCUACACAUCGUAUGUACCGAAUCGGGAAAAAGGGAAAAAGGGAAAAAAAGGGAAAGUAUUAUGUUACGCCGUUCGGAUCUGCAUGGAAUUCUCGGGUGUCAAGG | 0.177
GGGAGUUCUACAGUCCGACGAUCACCAUGCAGGUGGGCAUCUUUGGGAAGUGGGGCAAGGGGGGGAUAGGGAGGGGGGUAACACCUUGGGAACAGGUGGUCCCAGGUCGUUUCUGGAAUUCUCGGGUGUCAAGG | 1.02
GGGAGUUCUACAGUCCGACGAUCAAGUCCUGUGCUACACAUCGUAUGUACCGAAUCGGGGUUUGGGGUUUGGGGUUUGGGAAAGUAUUAUGUUACGCCGUUCGGAUCUGCACUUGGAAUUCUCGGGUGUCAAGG | 0.481
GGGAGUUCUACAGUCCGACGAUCCACAGACAACACGCACCCACAAAAACACAGAGGGAAGGGGUUGGGAUGGGGACAGGGUGCACAGCAGGGCGGGGUAGGACCCCAGCCCCUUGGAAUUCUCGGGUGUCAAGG | -0.234
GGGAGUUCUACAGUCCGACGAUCCACAGACAACACGCACCUACACAGACACAGAGGGAAGGGGUUGGGAUGGGGACAGGGUGCACAGCAGGGCGGGGUAGGACCCCAGCCCCUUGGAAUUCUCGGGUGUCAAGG | -0.00987
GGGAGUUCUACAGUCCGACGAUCUAACUUUAGAGGAGGAUCUGAUGGAUAUGGCAGUGGACGUGGAUUUGGGGAUGGAUAUAAUGGGUAUGGAGGAGGACCUGGAGGUGGCAAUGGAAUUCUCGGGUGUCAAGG | -0.442
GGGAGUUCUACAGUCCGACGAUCUCCUGUGCUACACAUCGUAUGUACCGAAUCGGGGAAAGGGGUUUUUUUGGGGAAAGGGGAAAGUAUUAUGUUACGCCGUUCGGAUCUGCAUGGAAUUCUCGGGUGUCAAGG | 1.01

Repeated from above (set 2):
Sequence | E-score
ATAACGAC | -0.07
AATTGCGG | 0.24
AGTCTCAA | -0.149
CGATAATA | 0.00363
